Literature values that unrelated publications cite.
Compare with care: the assays were run in different laboratories. ± gives the spread as reported.

| Structure (SMILES) | tested on | assay | system | setting | scale | measurement | value |
| --- | --- | --- | --- | --- | --- | --- | --- |
| C[C@H](NC(=O)Cc1cc(F)cc(F)c1)C(=O)N[C@H](C(=O)OC(C)(C)C)c1ccccc1 | primary human neurons | amyloid beta 42 formation, measured: amyloid beta 42 | – | – | – | IC50 | 0.2 µM |
| COc1ccc(Nc2nc(N)c(C(=O)c3ccccc3)s2)cc1 | various cancer cell lines | cell growth | – | – | – | IC50 | 0.35 µM |
| Nc1nc2[nH]c(CCCCCc3ccc(C(=O)N[C@@H](CCC(=O)O)C(=O)O)cc3)cc2c(=O)[nH]1 | CHO PC43-10, human RFC-expressing | cell growth | – | – | – | IC50 | > 1 µM |
| CNC(=O)c1cc(Oc2ccc(NC(=O)Nc3ccc(Cl)c(C(F)(F)F)c3)cc2)ccn1 | hiPSC-derived cardiomyocytes | – | – | 72 h, tested 0 to 100 µM | – | beating cessation concentration | 3.7 µM |
| Nc1nc2[nH]c(CCCCCCCC(=O)N[C@@H](CCC(=O)O)C(=O)O)cc2c(=O)[nH]1 | KB | cell proliferation, inhibitor | – | – | – | IC50 | 0.0011 ± 0.00088 µM |
| CC1(C)C=Cc2cc3ccc(=O)oc3cc2O1 | neutrophils | superoxide production | – | together with: fMLF | – | IC50 | 18.4 µM |
| C[C@]12CC[C@@H]3c4ccc(O)cc4CC[C@H]3[C@@H]1CC[C@H]2O | HT-22 | cell protection | – | together with: glutamate 10 mM | – | EC50 | 3.1 µM |
| CC(=O)Nc1cccc(-n2c(=O)n(C3CC3)c(=O)c3c(Nc4ccc(I)cc4F)n(C)c(=O)c(C)c32)c1 | hiPSC-derived cardiomyocytes | contractility | – | concentration not given, 72 h, at effective concentration | relative to: baseline | log2 fold change | 2.37 |
| CCn1c(C)c(C(=O)O)c(-c2cccc(N3CCN(c4ccc(NS(=O)(=O)c5ccc(N[C@H](CCN(C)C)CSc6ccccc6)c([N+](=O)[O-])c5)cc4)CC3)c2)c1-c1ccc(Cl)cc1 | multiple cancer cell lines | cell growth | – | – | – | IC50 | ~0.01 µM |
| C/C(=C/Cc1c(O)cc2oc(C)cc(=O)c2c1O)CO | neutrophils | superoxide production | – | together with: fMLF | – | IC50 | 13.4 µM |
| COC1=C(OC)[C@H](O)[C@H](C/C=C(\C)CC/C=C(\C)CCC=C(C)C)[C@@H](C)C1=O | HepG2 | cell growth | 10% FBS | 72 h | – | IC50 | 4.3 ± 0.03 µM |
| C=C(C)C(O)Cc1c(O)ccc2ccc(=O)oc12 (stereo not shown) | neutrophils | superoxide production | – | together with: fMLF | – | IC50 | 2.2 µM |
| C[C@@]12CC=C3c4ccc(O)cc4CC[C@@H]3[C@H]1CC[C@H]2O | HT-22 | cell protection | – | together with: iodoacetic acid 20 µM | – | EC50 | 0.296 µM |
| COc1ccc(N(C)c2nc(C)nc3[nH]ccc23)cc1 | SK-OV-3 MDR-1-6/6, Pgp-expressing | cell growth | – | – | – | IC50 | 0.435 ± 0.033 µM |
| O=C(Oc1ccc(Br)cc1)[c-]1cccc1.[Fe+2].c1cc[cH-]c1 | MCF-10A | cell growth | – | – | – | IC50 | > 250 µM |
| Nc1nc2[nH]c(CCCCCCc3ccc(C(=O)N[C@@H](CCC(=O)O)C(=O)O)cc3)cc2c(=O)[nH]1 | CHO RT16, human FRα-expressing | cell growth | – | together with: folic acid 200 nM | – | IC50 | > 1 µM |
| Nc1nc2c(nc(Sc3ccc(Cl)cc3)n2C2OC3COP(O)(=S)OC3C2O)c(=O)[nH]1 (stereo not shown) | PDE1A | cyclic nucleotide hydrolysis, substrate or inhibitor, isothermal titration calorimetry | – | – | – | Km or Ki | 42.4 µM |
| Cc1ccc(C(C)C)cc1.F[P-](F)(F)(F)(F)F.NCCN.[Cl][Ru+] | A549 | cell growth | – | – | – | IC50 | 7.1 µM |
| Nc1nc(N)c(CCCC(C(=O)C(F)(F)F)c2ccc(C(=O)N[C@@H](CCC(=O)O)C(=O)O)cc2)c(=O)[nH]1 (stereo partly shown) | CCRF-CEM/MTX RFC-deficient | cell growth | – | – | – | IC50 | > 100 µM |
| Cc1ccc2c(c1)C1(NN=C(c3ccccc3)S1)C(=O)N2 (stereo not shown) | HepG2 | fatty acid uptake | – | – | – | IC50 | 5.9 µM |
| NC1=NN(c2ccc(Oc3ccccc3)c(S(=O)(=O)O)c2)C(=O)C1 | AP-1-luc HEK293 | AP-1 luciferase reporter, inhibitor | – | – | – | IC50 | < 1 µM |
| CNC1=CC(=O)c2cc(C)ncc2C1=O | 36 cancer cell lines | – | – | mean | – | IC50 | 3.5 µM |
| C=C(CO)[C@@H]1CC[C@]2(C)CC[C@]3(C)[C@H](CC[C@@H]4[C@@](C)(CC(=O)O)[C@H](C(C)(C)C(=O)O)CC[C@]43C)[C@@H]12 | neutrophils | superoxide production | – | together with: fMLF | – | IC50 | 0.12 µM |
| CCOC(=O)N1CCN(/[N+]([O-])=N/Oc2ccc([N+](=O)[O-])cc2[N+](=O)[O-])CC1 | HL-60 | cell growth | – | – | – | IC50 | 0.2 to 0.5 µM |
| CC(C)C[C@H]1NC(=O)[C@H](CC(=O)O)NC(=O)CNC(=O)[C@H](CCCNC(=N)N)NC(=O)[C@H](C)NC1=O | WM-115 | cell adhesion, inhibitor | – | together with: immobilized CagL RGA mutant | – | IC50 | 1.63 µM |
| Nc1nc2c(nc(Br)n2[C@@H]2O[C@@H]3COP(=O)(O)O[C@H]3[C@H]2O)c(=O)[nH]1 | PDE1B | cyclic nucleotide hydrolysis, substrate or inhibitor, isothermal titration calorimetry | – | – | – | Km or Ki | 4.48 µM |
| COc1c(O)ccc2c1cnc1c3cc4c(cc3ccc21)OCO4 | neutrophils | superoxide production | – | together with: fMLF | – | IC50 | 4.1 µM |
| CC(=O)Oc1ccccc1C(=O)O | rat brain microglia | thromboxane B2 generation | – | together with: Escherichia coli LPS | – | IC50 | 3.12 to 10 µM |

Excerpt of the above:
| Structure (SMILES) | tested on | assay | system | setting | scale | measurement | value |
| --- | --- | --- | --- | --- | --- | --- | --- |
| NC1=NN(c2ccc(Oc3ccccc3)c(S(=O)(=O)O)c2)C(=O)C1 | AP-1-luc HEK293 | AP-1 luciferase reporter, inhibitor | – | – | – | IC50 | < 1 µM |
